Measured values from different studies.
Compare with care: the assays were run in different laboratories.

For `Cc1ccc(S(=O)(=O)N2C(=O)CSC2c2ccccc2Cl)cc1` (stereo not shown), the EC50 was over 100 µM (influenza B virus; viral cytopathicity, visual CPE scoring; MDCK, B/Ned/537/05).
With `O=C(N/N=C1\C(=O)Nc2ccc(Cl)cc21)N/N=C1\C(=O)Nc2ccc(Cl)cc21` the EC50 was over 100 µM (vesicular stomatitis virus; viral replication; HeLa).
`Nc1nc2c(ncn2COCCO)c(=O)[nH]1` has an EC50 of over 250 µM (vesicular stomatitis virus; viral cytopathic effect; HEL).
`Cc1ccc(S(=O)(=O)N2C(=O)CSC2c2ccc([N+](=O)[O-])cc2)cc1` (stereo not shown) gave an EC50 of over 100 µM (influenza B virus; viral cytopathicity, visual CPE scoring; MDCK, B/Ned/537/05).
For `O=C(Cc1csc2nc(-c3ccc(Br)cc3)cn12)NN1C(=O)CSC12CCCC2`, the EC50 was over 100 µg/mL (vesicular stomatitis virus; viral cytopathic effect; HEL).
With `O=C1Nc2ccccc2/C1=N/NC(=S)N/N=C1\C(=O)Nc2ccccc21` the EC50 was over 100 µM (vesicular stomatitis virus; viral replication; HeLa).
The EC50 of `Cc1ccc(S(=O)(=O)N2C(=O)CSC2c2ccc(C(C)C)cc2)cc1` (stereo not shown) is reported as over 100 µM (influenza B virus; viral cytopathicity, visual CPE scoring; MDCK, B/Ned/537/05).
`O=C(N/N=C1\C(=O)Nc2ccccc21)N/N=C1\C(=O)Nc2ccccc21` gave an EC50 of over 100 µM (vesicular stomatitis virus; viral replication; HeLa).
With `Cc1ccc(S(=O)(=O)N2C(=O)CSC2c2cccc(Br)c2)cc1` (stereo not shown) the EC50 was over 100 µM (influenza B virus; viral cytopathicity, visual CPE scoring; MDCK, B/Ned/537/05).
The EC50 of `O=C(Cc1csc2nc(-c3ccc(Br)cc3)cn12)NN1C(=O)CSC12CCC(c1ccc(O)cc1)CC2` (stereo not shown) is reported as over 100 µg/mL (vesicular stomatitis virus; viral cytopathic effect; HEL).
`NC(=O)c1ncn([C@@H]2O[C@H](CO)[C@@H](O)[C@H]2O)n1` has an EC50 of 2.3 to 3.4 µM (Influenza A virus (H1N1); antiviral activity; MDCK).
The EC50 of `NC(=O)c1ncn([C@@H]2O[C@H](CO)[C@@H](O)[C@H]2O)n1` is reported as 10 µM (vesicular stomatitis virus; viral replication; HeLa).
`CC1SC2(CCCC2)N(NC(=O)Cc2csc3nc(-c4ccc(Br)cc4)cn23)C1=O` (stereo not shown) gave an EC50 of over 100 µg/mL (vesicular stomatitis virus; viral cytopathic effect; HEL).
The EC50 of `CN/C(=N\[N+](=O)[O-])NCc1cnc(Cl)s1` is reported as 0.05 mg/kg dry soil (Folsomia candida; reproduction, OECD 232; LUFA 2.2 soil; 28 days).
The EC50 of `Cc1ccc(S(=O)(=O)N2C(=O)CSC2c2ccccc2)cc1` (stereo not shown) is reported as over 100 µM (influenza B virus; viral cytopathicity, visual CPE scoring; MDCK, B/Ned/537/05).
`O=C(Cc1csc2nc(-c3ccc(Br)cc3)cn12)NN1C(=O)CSC12CCCCC2` has an EC50 of over 100 µg/mL (vesicular stomatitis virus; viral cytopathic effect; HEL).

Some of these lines once more:
The EC50 of `Cc1ccc(S(=O)(=O)N2C(=O)CSC2c2ccccc2)cc1` (stereo not shown) is reported as over 100 µM (influenza B virus; viral cytopathicity, visual CPE scoring; MDCK, B/Ned/537/05).
`O=C(Cc1csc2nc(-c3ccc(Br)cc3)cn12)NN1C(=O)CSC12CCCCC2` has an EC50 of over 100 µg/mL (vesicular stomatitis virus; viral cytopathic effect; HEL).
